Published values gathered from unrelated publications.
Target: Phosphatidylinositol 4,5-bisphosphate 3-kinase catalytic subunit gamma isoform (PIK3CG, Homo sapiens, UniProt P48736)
Sequence of UniProt P48736 (whole entry, looked up): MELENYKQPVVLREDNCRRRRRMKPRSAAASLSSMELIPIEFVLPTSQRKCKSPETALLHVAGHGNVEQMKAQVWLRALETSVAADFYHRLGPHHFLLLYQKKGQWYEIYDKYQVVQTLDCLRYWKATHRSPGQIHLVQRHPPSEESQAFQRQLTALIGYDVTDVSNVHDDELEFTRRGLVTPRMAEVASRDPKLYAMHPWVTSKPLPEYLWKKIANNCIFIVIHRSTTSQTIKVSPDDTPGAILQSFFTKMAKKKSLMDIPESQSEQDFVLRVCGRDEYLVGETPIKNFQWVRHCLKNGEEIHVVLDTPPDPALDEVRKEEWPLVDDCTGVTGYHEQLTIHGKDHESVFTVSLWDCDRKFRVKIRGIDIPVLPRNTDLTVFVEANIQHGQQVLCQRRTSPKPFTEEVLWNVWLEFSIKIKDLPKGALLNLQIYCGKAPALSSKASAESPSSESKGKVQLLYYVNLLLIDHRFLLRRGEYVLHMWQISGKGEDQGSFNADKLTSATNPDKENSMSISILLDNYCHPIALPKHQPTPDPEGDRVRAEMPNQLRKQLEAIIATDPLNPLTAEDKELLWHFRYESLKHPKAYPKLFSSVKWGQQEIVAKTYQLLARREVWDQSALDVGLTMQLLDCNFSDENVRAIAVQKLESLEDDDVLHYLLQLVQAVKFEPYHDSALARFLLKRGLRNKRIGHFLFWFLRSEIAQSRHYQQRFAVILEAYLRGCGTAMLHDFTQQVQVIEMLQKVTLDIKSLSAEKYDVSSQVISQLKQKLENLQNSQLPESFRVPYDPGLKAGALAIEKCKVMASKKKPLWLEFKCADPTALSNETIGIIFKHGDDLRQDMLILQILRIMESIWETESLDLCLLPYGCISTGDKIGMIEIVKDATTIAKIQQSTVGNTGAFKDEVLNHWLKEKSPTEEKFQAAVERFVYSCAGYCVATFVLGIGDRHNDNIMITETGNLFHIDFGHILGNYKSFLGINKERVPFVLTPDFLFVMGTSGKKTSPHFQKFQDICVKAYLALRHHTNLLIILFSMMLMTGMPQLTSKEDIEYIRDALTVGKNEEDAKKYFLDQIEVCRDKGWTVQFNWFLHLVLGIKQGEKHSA

SMILES | observed | mode | technique | IC50 [nM]
CCc1ccc(/N=C2\C(=O)N(Cc3ccc([N+](=O)[O-])cc3)c3ccccc32)cc1 | enzyme activity | inhibitor | ADP detection | 7.49
O=C1Nc2c(Br)cccc2/C1=C1/Nc2ccccc2C1=NO |  |  |  | > 9100
Cc1nc(Nc2ccc3c(c2)/C(=C/c2c[nH]c4ccccc24)C(=O)N3)c2ccccc2n1 | enzyme activity | inhibitor | ADP detection | 98.3
CC(=O)N1c2ccc(-c3ccc(CNC(=O)c4cn5cc(-c6cnc(N)nc6)nc(N6CCOCC6)c5n4)cc3)cc2CC[C@@H]1C | enzyme activity | inhibitor |  | 937
CCN(CC)CC(=O)Nc1cccc(-n2cc(-c3ccc4ccc(-c5cn(-c6cccc(NC(=O)CN(CC)CC)c6)nn5)cc4c3)nn2)c1 | enzyme activity | inhibitor |  | > 10000
Cc1nn(-c2cccc(N)c2)c(=O)c2cnc(Nc3ccc(N4CCNCC4)cc3)nc12 | enzyme activity | inhibitor |  | > 10000
COc1ccccc1/C=C1\C(=O)N(C)c2ccc(Nc3nc(C)nc4ccccc34)cc21 | enzyme activity | inhibitor | ADP detection | 376
CN1C(=O)/C(=N\c2ccc(Cl)cc2Br)c2ccccc21 | enzyme activity | inhibitor | ADP detection | 4.5
Cc1nc(N(C)c2ccc3c(c2)/C(=C/c2ccccc2C)C(=O)N3C)c2ccccc2n1 | enzyme activity | inhibitor | ADP detection | 75.7
O=C1/C(=N\c2cccc(Cl)c2)c2ccccc2N1Cc1ccccc1 | enzyme activity | inhibitor | ADP detection | 6.02

Repeated from above:
SMILES | observed | mode | technique | IC50 [nM]
CCc1ccc(/N=C2\C(=O)N(Cc3ccc([N+](=O)[O-])cc3)c3ccccc32)cc1 | enzyme activity | inhibitor | ADP detection | 7.49
